Published values of several laboratories.
Protocols differ between the studies behind these lines. Values joined by “and” are separate records of one study, mostly repeats; a detail may differ. ± gives the spread as reported.
Kelch domain-containing protein 2: Kelch domain-containing protein 2 (UniProt Q9Y2U9)
UniProt Q9Y2U9, sequence (whole entry, looked up): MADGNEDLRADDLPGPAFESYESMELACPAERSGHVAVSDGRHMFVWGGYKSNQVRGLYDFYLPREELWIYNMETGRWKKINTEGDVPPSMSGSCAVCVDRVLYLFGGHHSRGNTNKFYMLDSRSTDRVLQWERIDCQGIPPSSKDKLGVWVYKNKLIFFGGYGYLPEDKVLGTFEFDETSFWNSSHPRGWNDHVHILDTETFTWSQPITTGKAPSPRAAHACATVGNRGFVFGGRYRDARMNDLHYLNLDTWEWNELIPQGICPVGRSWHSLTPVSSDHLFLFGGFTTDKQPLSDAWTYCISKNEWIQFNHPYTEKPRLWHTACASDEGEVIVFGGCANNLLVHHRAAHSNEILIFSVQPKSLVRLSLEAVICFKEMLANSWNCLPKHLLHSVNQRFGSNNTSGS
YAP1 WW1 domain: Transcriptional coactivator YAP1, WW1 domain (YAP1, Homo sapiens, UniProt P46937)
KCNT1: Potassium channel subfamily T member 1 (KCNT1, Homo sapiens, UniProt Q5JUK3)
UniProt Q5JUK3, sequence (whole entry, looked up): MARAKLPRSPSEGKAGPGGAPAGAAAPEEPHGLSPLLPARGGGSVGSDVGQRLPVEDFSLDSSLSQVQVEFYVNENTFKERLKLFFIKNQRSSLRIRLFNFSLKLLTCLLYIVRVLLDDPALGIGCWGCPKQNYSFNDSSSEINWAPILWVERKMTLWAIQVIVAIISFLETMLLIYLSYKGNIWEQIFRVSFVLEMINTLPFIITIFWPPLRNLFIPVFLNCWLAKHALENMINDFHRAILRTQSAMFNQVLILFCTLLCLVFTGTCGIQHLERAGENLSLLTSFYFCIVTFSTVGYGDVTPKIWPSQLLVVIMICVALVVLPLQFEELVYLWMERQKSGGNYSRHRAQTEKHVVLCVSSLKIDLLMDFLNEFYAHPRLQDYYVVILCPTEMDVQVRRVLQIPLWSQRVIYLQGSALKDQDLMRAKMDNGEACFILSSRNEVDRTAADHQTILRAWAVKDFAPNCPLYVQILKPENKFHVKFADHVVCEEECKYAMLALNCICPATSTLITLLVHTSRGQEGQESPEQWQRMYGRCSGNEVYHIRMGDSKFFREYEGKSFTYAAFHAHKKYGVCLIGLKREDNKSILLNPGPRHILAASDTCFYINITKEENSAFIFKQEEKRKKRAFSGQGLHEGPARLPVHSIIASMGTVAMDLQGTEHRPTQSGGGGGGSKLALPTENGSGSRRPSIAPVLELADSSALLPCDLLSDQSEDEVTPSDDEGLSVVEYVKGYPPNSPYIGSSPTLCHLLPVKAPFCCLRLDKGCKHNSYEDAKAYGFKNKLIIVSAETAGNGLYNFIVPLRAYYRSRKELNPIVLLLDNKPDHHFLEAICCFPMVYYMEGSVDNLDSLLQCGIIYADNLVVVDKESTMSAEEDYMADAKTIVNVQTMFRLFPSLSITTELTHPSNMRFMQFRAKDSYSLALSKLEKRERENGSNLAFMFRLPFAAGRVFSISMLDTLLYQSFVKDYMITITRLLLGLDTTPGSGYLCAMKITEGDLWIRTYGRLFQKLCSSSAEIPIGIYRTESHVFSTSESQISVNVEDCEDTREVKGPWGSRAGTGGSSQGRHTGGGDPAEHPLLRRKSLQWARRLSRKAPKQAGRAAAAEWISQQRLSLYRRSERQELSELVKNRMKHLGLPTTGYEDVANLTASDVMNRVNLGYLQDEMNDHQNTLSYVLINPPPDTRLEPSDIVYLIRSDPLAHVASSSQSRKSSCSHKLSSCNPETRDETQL
CFTR del508-508: Cystic fibrosis transmembrane conductance regulator (CFTR, Homo sapiens, UniProt P13569, del508-508)
T1: RNA G4, bulged parallel (Homo sapiens); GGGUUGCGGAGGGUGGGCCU
UniProt Q9NZ08, sequence (whole entry, unmodified, looked up): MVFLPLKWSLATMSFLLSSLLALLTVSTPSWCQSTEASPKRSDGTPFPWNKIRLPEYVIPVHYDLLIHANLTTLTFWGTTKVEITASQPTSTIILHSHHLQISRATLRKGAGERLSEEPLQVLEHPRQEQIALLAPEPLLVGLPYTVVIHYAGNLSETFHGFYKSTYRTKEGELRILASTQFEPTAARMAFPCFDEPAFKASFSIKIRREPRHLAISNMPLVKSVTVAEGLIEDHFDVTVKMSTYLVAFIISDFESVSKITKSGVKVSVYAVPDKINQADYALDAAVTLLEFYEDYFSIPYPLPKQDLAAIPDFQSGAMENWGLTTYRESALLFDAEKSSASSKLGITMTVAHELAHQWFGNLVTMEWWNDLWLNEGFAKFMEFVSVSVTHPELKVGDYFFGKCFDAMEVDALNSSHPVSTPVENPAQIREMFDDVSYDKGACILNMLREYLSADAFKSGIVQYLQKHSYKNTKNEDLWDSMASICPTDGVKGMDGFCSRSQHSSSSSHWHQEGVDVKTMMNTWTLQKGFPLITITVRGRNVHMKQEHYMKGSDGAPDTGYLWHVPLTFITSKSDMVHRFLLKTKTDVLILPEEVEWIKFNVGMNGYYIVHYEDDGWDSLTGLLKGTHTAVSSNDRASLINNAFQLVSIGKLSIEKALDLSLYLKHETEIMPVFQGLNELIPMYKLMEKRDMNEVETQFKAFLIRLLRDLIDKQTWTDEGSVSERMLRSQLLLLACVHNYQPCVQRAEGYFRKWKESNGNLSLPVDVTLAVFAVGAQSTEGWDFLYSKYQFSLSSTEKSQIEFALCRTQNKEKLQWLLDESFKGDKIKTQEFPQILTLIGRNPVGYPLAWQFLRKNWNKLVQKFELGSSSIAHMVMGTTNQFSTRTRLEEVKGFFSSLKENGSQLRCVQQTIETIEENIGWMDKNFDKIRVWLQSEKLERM
UniProt Q14432, sequence (whole entry, looked up): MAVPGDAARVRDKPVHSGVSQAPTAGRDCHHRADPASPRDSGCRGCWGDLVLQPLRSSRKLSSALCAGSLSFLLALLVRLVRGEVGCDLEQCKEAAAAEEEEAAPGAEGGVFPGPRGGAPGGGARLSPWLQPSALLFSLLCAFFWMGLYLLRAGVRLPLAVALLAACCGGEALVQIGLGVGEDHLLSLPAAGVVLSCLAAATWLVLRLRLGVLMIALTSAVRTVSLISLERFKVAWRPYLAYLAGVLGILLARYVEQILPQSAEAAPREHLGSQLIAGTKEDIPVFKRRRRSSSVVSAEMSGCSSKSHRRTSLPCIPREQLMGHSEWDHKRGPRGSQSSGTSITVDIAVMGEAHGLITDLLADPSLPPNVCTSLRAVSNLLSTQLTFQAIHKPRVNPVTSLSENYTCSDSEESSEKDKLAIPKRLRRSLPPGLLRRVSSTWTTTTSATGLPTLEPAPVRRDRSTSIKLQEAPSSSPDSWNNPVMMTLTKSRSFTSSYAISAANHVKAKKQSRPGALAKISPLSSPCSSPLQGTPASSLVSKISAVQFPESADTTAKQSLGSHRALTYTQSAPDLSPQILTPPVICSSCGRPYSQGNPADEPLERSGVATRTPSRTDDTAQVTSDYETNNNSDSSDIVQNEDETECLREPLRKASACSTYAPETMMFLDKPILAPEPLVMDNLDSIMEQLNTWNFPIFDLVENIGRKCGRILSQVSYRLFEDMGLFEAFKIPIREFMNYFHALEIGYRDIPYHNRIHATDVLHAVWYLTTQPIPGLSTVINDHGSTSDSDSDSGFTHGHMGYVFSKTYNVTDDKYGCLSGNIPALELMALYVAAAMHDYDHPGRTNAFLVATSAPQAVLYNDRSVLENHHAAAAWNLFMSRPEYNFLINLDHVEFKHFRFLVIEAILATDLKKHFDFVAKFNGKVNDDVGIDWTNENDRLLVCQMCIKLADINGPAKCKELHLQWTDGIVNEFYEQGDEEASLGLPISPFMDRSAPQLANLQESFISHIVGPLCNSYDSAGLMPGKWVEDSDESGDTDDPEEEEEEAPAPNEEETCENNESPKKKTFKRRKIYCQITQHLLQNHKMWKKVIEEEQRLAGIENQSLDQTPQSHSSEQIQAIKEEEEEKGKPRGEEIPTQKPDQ
UniProt P50225, sequence (whole entry, looked up): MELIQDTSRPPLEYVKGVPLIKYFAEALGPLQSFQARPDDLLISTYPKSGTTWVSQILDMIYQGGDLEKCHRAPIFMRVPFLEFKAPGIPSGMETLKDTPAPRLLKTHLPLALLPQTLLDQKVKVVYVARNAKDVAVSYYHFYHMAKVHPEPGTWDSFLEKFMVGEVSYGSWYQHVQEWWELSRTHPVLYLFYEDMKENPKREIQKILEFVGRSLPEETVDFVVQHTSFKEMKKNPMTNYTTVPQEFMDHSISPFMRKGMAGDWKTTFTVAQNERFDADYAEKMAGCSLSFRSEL

Substance | target | test | test system | conditions | scale | quantity | value
Clc1cccc(SSc2cccc(Cl)c2)c1 | tubulin | colchicine binding, [3H]colchicine binding | – | 50 µM, 10 min, 37 °C, added: [3H]colchicine 5.0 µM | – | inhibition | 18 ± 5%
LPEFGG | Kelch domain-containing protein 2 | native mass spectrometry | peptide, 200 mM ammonium acetate | 20 µM Kelch domain-containing protein 2, pH 7 | relative to: total Kelch domain-containing protein 2 signal | fraction of protein bound | 4.9%
LRHYLNLLTRORY (acetyl-Leu28, acetyl-Leu31) | neuropeptide Y receptor Y2 human | agonist | peptide, hY2-CHO | 100 nM, 30 min, 37 °C, added: PAO 30 µM | relative to: no unlabeled agonist | surface receptor depletion | 49.5 ± 1.5%
Clc1cccc(Nc2nnc(-c3ccccc3)c3ccccc23)c1 | cGMP-inhibited 3',5'-cyclic phosphodiesterase 3A (PDE3A, Homo sapiens, UniProt Q14432) | cAMP hydrolysis, inhibitor, fluorescence polarization | recombinant enzyme | up to 100 µM, 30 min preincubation, 30 °C, added: fluorescein-cAMP 25 nM | – | IC50 | inactive
N[C@@H](Cc1c[nH]cn1)C(=O)O | Histidine--tRNA ligase, cytoplasmic (HARS1, Homo sapiens, UniProt P12081, Y330C) | substrate | – | pH 7.5, added: 10 mM ATP, 5 µM tRNAHis | – | Km | 203 ± 83.2 µM
PEFGG | Kelch domain-containing protein 2 | native mass spectrometry | peptide, 200 mM ammonium acetate | 20 µM Kelch domain-containing protein 2, pH 7 | relative to: total Kelch domain-containing protein 2 signal | fraction of protein bound | 0%
CC(C)C[C@H](NC(=O)[C@@H](NC(=O)[C@@H](N)[C@@H](C)O)C(C)C)C(=O)N1CCC[C@H]1C(=O)N1CCC[C@H]1C(=O)N1CCC[C@H]1C(=O)N1CCC[C@H]1C(=O)N[C@@H](Cc1ccc(O)cc1)C(=O)N[C@@H](CCCNC(=N)N)C(=O)N[C@@H](C)C(=O)N[C@@H](CCCNC(=N)N)C(=O)N[C@@H](CC(N)=O)C(=O)O | Transcriptional coactivator YAP1, WW2 domain (YAP1, Homo sapiens, UniProt P46937) | binding, ITC | – | pH 7.0, 25 °C, WW2 domain | – | TΔS | -8.62 ± 0.26 kcal/mol
COc1c(Nc2cc(C(F)(F)F)cc(C(F)(F)F)c2)c(=O)c1=O | CD209 antigen (CD209, Homo sapiens, UniProt Q9NNX6) | activator, plate-based HRP | – | 500 µM, overnight, 4 °C or RT | relative to: DMSO control | HRP binding | ≥ 50%
CC(C)[C@H](NC(=O)[C@@H](N)[C@@H](C)O)C(=O)N[C@@H](C)C(=O)N1CCC[C@H]1C(=O)N1CCC[C@H]1C(=O)N1CCC[C@H]1C(=O)N1CCC[C@H]1C(=O)N[C@@H](Cc1ccc(O)cc1)C(=O)N[C@@H](CCCNC(=N)N)C(=O)N[C@@H](Cc1c[nH]cn1)C(=O)N[C@@H](CCCNC(=N)N)C(=O)N[C@@H](CC(N)=O)C(=O)O | YAP1 WW1 domain | binding, ITC | – | pH 7.0, 25 °C, WW1 domain | – | TΔS | -10.1 ± 0.78 kcal/mol
YSLAAVVLGLVQSLNRQRQKQLLNE | Calmodulin-1 (Calm1, Rattus norvegicus, UniProt P0DP29, D21A/D57A) | Ca2+ dissociation, stopped-flow quin-2 fluorescence | peptide | 2 µM, pH 7.4, 22 °C, added: Ca2+-calmodulin complex | – | koff1 | 8.45 s⁻¹ and 8.5 s⁻¹
IINFEKE | Endoplasmic reticulum aminopeptidase 1 (ERAP1, Homo sapiens, UniProt Q9NZ08, L733R) | substrate | peptide | pH 8.0, 27 °C, mutant L733R, added: L-AMC, peptide activator 100 µM | – | K1/2 of L-AMC | 0.23 ± 0.08 mM
OC[C@H]1OC(O)[C@H](O)[C@@H](O)[C@@H]1O (stereo partly shown) | Beta-glucosidase (Oenococcus oeni, UniProt Q04DP9) | – | – | 0.2 mol/L, pH 5.5, 37 °C | relative to: initial activity | remaining activity | 60%
Cc1nnc2c(S(=O)(=O)N3CC(c4nc(-c5ccc(F)cc5)no4)C3)cccn12 | KCNT1 | Tl+ flux, inhibitor | HEK293 expressing KCNT1 | 30 µM | – | activity class | inactive
Nc1ccc(-c2nc([C@H]3CCc4cc(-c5cc(Cl)ccc5-n5cnnn5)cc(=O)n43)c(F)[nH]2)c(F)n1 | Coagulation factor XI (F11, Homo sapiens, UniProt P03951) | – | human, blood | oral, 80 mg once daily, fed, day 14, 24 h | – | FXI activity inhibition | 61 ± 11.1%
O=S(=O)(Sc1ccc(Br)cc1)c1ccc(Br)cc1 | tubulin | colchicine binding, [3H]colchicine binding | – | 50 µM, 10 min, 37 °C, added: [3H]colchicine 5.0 µM | – | inhibition | 80 ± 2%
O=c1c(-c2ccc(O)cc2)coc2cc(O)cc(O)c12 | Cyclic nucleotide-gated channel alpha-1 (CNGA1, Bos taurus, UniProt Q00194) | cGMP-activated current, blocker, inside-out patch clamp, item: PTK-bound blocked channels | Xenopus oocytes | added: saturating cGMP | – | fraction of current | ≥ 40%

Substance | target | test | test system | conditions | scale | quantity | value
CC(C)C[C@H](NC(=O)[C@@H](NC(=O)[C@@H](N)[C@@H](C)O)C(C)C)C(=O)N1CCC[C@H]1C(=O)N1CCC[C@H]1C(=O)N1CCC[C@H]1C(=O)N1CCC[C@H]1C(=O)N[C@@H](Cc1ccc(O)cc1)C(=O)N[C@@H](CCCNC(=N)N)C(=O)N[C@@H](Cc1c[nH]cn1)C(=O)N[C@@H](C)C(=O)N[C@@H](CC(N)=O)C(=O)O | YAP1 WW1 domain | binding, ITC | – | pH 7.0, 25 °C, WW1 domain | – | TΔS | -4.27 ± 0.29 kcal/mol
O=[N+]([O-])c1ccc(OS(=O)(=O)O)cc1 | Sulfotransferase 1A1 (SULT1A1, Homo sapiens, UniProt P50225) | substrate | – | pH 6.2, 37 °C, value unreliable, added: PAP 0.1 mM | – | apparent Km | 75 ± 1 µM
COc1cccc(S(=O)(=O)N2CC(c3nc(-c4ccsc4)no3)C2)c1 | KCNT1 | Tl+ flux, inhibitor | HEK293 expressing KCNT1 | 30 µM | – | activity class | inactive
NCCOc1cc(NC(=O)c2cc(OCc3cn(CCC(=O)O)nn3)cc(C(=O)Nc3cc(OCCN)c4ccccc4n3)n2)nc2ccccc12 | T1, RNA G4, bulged parallel (Homo sapiens) | protein displacement, competitor, microscale thermophoresis | – | pH 7.5, 25 °C, KCl 150 mM, MgCl2 1 mM, added: nucleolin 80 nM | – | IC50 | 122 nM
IINFEKL | Endoplasmic reticulum aminopeptidase 1 (ERAP1, Homo sapiens, UniProt Q9NZ08, I681R) | substrate | peptide | pH 8.0, 27 °C, mutant I681R, added: L-AMC, peptide activator 100 µM | – | K1/2 of L-AMC | 0.4 ± 0.09 mM
CC[C@H](C)[C@H](NC(=O)[C@H](CC(C)C)NC(=O)[C@H](CC(C)C)NC(=O)CNC(=O)[C@H](Cc1ccc(O)cc1)NC(=O)[C@H](CCCNC(=N)N)NC(=O)[C@H](CO)NC(C)=O)C(=O)N[C@@H](CCCCN)C(=O)N[C@@H](C)C(=O)N[C@@H](Cc1ccccc1)C(=O)N[C@@H](CO)C(=O)N[C@@H](CCSC)C(=O)N[C@H](C(=O)N[C@@H](C)C(=O)N[C@@H](C)C(=O)N[C@@H](CCC(=O)O)C(=O)N[C@H](C(=O)N[C@@H](C)C(=O)N[C@@H](CCCNC(=N)N)C(=O)N[C@@H](CCCNC(=N)N)C(=O)N[C@H](C(=O)N[C@@H](CCCNC(=N)N)C(=O)N[C@@H](CCC(=O)O)C(=O)N[C@@H](Cc1ccccc1)C(=O)N[C@@H](CCCNC(=N)N)C(N)=O)[C@@H](C)O)[C@@H](C)O)[C@@H](C)O | calmodulin 1-148 sites III and IV | calcium binding, Tyr fluorescence titration | – | 12 µM, pH 7.4, 22 °C, added: 6 µM calmodulin | – | apparent ΔG1 | -6.81 ± 0.96 kcal/mol
GSRPQRLLWQTAVRHITEQRFIHGH | Calmodulin-1 (Calm1, Rattus norvegicus, UniProt P0DP29) | N-lobe Ca2+ dissociation, stopped-flow with quin-2 | peptide | 22 °C | – | Ca2+ dissociation rate constant | > 500 s⁻¹
CC(C)C[C@H](NC(=O)[C@@H](NC(=O)[C@@H](N)[C@@H](C)O)C(C)C)C(=O)N1CCC[C@H]1C(=O)N1CCC[C@H]1C(=O)N1CCC[C@H]1C(=O)N1CCC[C@H]1C(=O)N[C@@H](Cc1ccc(O)cc1)C(=O)N[C@@H](CCCNC(=N)N)C(=O)N[C@@H](Cc1c[nH]cn1)C(=O)N[C@@H](CCCNC(=N)N)C(=O)N[C@@H](CC(N)=O)C(=O)O | YAP1 WW1 domain | binding, ITC | – | pH 7.0, 25 °C, WW1 domain | – | ΔG | -6.16 ± 0.05 kcal/mol
O=C(C[C@@H](C(F)F)n1ccc(F)n1)N1CCC(O)(Cn2cnc3c(cnn3-c3ccc(F)cc3)c2=O)CC1 | Ubiquitin carboxyl-terminal hydrolase 7 (USP7, Homo sapiens, UniProt Q93009, V517F) | enzyme activity, inhibitor, Ub-AMC | – | – | relative to: V517F over wild type | IC50 fold change | ~2340 fold
CCOc1ccccc1S(=O)(=O)N1CC(c2nc(-c3ccc(F)s3)no2)C1 | KCNT1 | ion current, activator, automated patch clamp | CHO | 30 µM | relative to: bepridil 60 µM | efficacy | 100%
Cc1cc(C)c2cc(C#N)c(N3CCN(C(=O)c4ccncc4)CC3)nc2c1 | CFTR del508-508 | iodide influx, potentiator | FRT expressing ΔF508-CFTR and YFP | up to 50 µM, low-temperature rescued, added: forskolin 20 µM | – | EC50 | inactive
[Na+] | melB (Salmonella typhimurium, UniProt P30878) | substrate, isothermal titration calorimetry | – | concentration not given, 15-30 °C, ΔH versus temperature slope, added: 50 mM melibiose | – | heat capacity change | -760 J/mol/K
Cc1cccnc1Nc1nc2c(s1)CCCCc1nc(NC(=O)C(C)(C)C)sc1-2 | CFTR del508-508 | iodide influx, corrector, YFP halide quenching | FRT cells expressing YFP-H148Q/I152L | 16 to 20 h, 37 °C, genistein 50 µM, added: forskolin 20 µM | – | Vmax | 280 µM/s
Cc1cc(C)c2cc(C#N)c(N3CCN(C(=O)c4cccnc4)CC3)nc2c1 | CFTR del508-508 | iodide influx, potentiator | FRT expressing ΔF508-CFTR and YFP | up to 50 µM, low-temperature rescued, added: forskolin 20 µM | – | EC50 | inactive
N[C@@H](Cc1c[nH]cn1)C(=O)O | Large neutral amino acids transporter small subunit 1 (SLC7A5, Homo sapiens, UniProt Q01650) | substrate | HEK293 expressing human LAT1 | 200 µM, 3 min, added: [3H]-gabapentin preloaded | relative to: L-phenylalanine | relative efflux | 140%

Excerpt of the above:
Substance | target | test | test system | conditions | scale | quantity | value
CC(C)[C@H](NC(=O)[C@@H](N)[C@@H](C)O)C(=O)N[C@@H](C)C(=O)N1CCC[C@H]1C(=O)N1CCC[C@H]1C(=O)N1CCC[C@H]1C(=O)N1CCC[C@H]1C(=O)N[C@@H](Cc1ccc(O)cc1)C(=O)N[C@@H](CCCNC(=N)N)C(=O)N[C@@H](Cc1c[nH]cn1)C(=O)N[C@@H](CCCNC(=N)N)C(=O)N[C@@H](CC(N)=O)C(=O)O | YAP1 WW1 domain | binding, ITC | – | pH 7.0, 25 °C, WW1 domain | – | TΔS | -10.1 ± 0.78 kcal/mol
YSLAAVVLGLVQSLNRQRQKQLLNE | Calmodulin-1 (Calm1, Rattus norvegicus, UniProt P0DP29, D21A/D57A) | Ca2+ dissociation, stopped-flow quin-2 fluorescence | peptide | 2 µM, pH 7.4, 22 °C, added: Ca2+-calmodulin complex | – | koff1 | 8.45 s⁻¹ and 8.5 s⁻¹
